# Measured values of several laboratories.
# Compare with care: the assays were run in different laboratories. Numbers after ± are the reported error.
# T1: STAG2/RAD21 STAG2 80-1060, RAD21 281-420 (Homo sapiens); chain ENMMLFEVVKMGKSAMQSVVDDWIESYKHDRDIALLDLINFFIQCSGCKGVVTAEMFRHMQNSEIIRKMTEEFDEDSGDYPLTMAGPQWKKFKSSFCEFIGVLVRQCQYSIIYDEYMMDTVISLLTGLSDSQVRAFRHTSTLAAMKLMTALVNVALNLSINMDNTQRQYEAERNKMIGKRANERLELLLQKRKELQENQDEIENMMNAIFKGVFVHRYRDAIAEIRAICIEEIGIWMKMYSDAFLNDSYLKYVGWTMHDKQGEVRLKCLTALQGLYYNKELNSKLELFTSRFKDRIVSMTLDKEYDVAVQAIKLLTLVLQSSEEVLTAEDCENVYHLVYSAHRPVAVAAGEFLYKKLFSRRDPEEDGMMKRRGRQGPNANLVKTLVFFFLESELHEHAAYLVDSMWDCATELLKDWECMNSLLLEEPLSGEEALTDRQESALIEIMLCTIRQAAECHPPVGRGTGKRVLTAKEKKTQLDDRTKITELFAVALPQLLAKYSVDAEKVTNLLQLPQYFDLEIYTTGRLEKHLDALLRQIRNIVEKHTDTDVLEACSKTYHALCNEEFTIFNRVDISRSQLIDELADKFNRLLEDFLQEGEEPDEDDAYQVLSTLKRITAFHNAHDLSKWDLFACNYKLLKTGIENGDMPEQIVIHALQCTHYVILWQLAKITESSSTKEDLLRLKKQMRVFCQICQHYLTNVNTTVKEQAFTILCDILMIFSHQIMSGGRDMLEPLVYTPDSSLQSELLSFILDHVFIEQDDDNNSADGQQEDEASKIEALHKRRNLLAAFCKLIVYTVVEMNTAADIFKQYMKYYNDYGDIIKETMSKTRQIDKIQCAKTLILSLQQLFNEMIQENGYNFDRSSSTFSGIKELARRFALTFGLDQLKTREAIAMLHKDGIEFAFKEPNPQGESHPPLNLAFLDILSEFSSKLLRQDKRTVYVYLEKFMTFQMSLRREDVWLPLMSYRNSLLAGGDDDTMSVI; chain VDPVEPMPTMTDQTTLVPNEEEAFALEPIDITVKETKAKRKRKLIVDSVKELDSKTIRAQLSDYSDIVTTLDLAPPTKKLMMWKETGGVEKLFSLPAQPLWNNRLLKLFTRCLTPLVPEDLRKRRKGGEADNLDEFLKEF
# B1: RRN3 18-627 (Saccharomyces cerevisiae, UniProt P36070); sequence looked up; chain PIDQKKRKVQFSDSTGLVTLQPEEIKDEVFSAAMYSRFVKSALDDLDKNDSTQIGIIANQVALPSKNPERINDKNLNILLDILSSNINRIESSRGTFLIQSIINFEKWWELPPHTLSKYIYFIKILCSSIPKWWQDVSMILVSCFILPIKQTVCHHDMLKYFLRMIPSSMGFIDTYLAKFFPNKNDTRRKLVNYTSNLLKLRGYCSELGFQIWSLLIEKIISIDVELQNELDELDDDVDDDDLEEVDLEDDDDLDDDSGDDDDENCGNSNEELRSGAADGSQSDSEDMDIIEGMDGTEEYNVELTQGIKELSTKLDSILTLVSTHVEEQVTPESLESGEGVGVFNTLTTLFKTHVLPTYYTRSIQYIMFHVSQQQLELMDSFLVTLIDISFAVNEAAEKKIKSLQYLGSYIARAKKLSRTQIIFVASYLTSWLNRYVIEREEEVDQRGGMERFKHFYAAFQALCYIFCFRHNIFRDTDGNWECELDKFFQRMVISKFNPLKFCNENVMLMFARIAQQESVAYCFSIIENNNNERLRGIIGKADSDKKENSAQANTTSSSWSLATRQQFIDLQSYFPYDPLFLKNYKILMKEYYIEWSEASGEYESDGSDD
# B2: Fmnl3 555-954 Q746A (Mus musculus, UniProt Q6ZPF4); chain GLSAIRIKKPIKTKFRLPVFNWTALKPNQINGTVFSELDDEKILEDLDLDRFEELFKTKAQGPALDLICSKNKTAQKAASKVTLLEANRAKNLAITLRKAGRSAEEICRAIHTFDLQTLPVDFVECLMRFLPTEAEVKLLRQYERERQPLEELAAEDRFMLLFSKVERLTQRMAGMAFLGNFQDNLQMLTPALNAIIAASASVKSSQKLKQMLEIILALGNYMNSSKRGAVYGFKLQSLDLLLDTKSTDRKMTLLHFIALTVKEKYPELANFWQELHFVEKAAAVSLENVLLDVKELGRGMELIRRECSIHDNSVLRNFLSTNEGKLDKLQRDAKTAEEAYNAVVRYFGESPKTTPPSVFFPVFVRFIRSYKEAEQENEARKKQEEVMREKQLAQEAKKL
# B3: HNRNPH1 192-280 (Homo sapiens, UniProt P31943); chain RTHYDPPRKLMAMQRPGPYDRPGAGRGYNSIGRGAGFERMRRGAYGGGYGGYDDYNGYNDGYGFGSDRFGRDLNYCFSGMSDHRYGDGG
# B4: Bid (Mus musculus, UniProt P70444); chain MDSEVSNGSGLGAEHITDLLVFGFLQSSGCTRQELEVLGRELPVQAYWEADLEDELQTDGSQASRSFNQGRIEPDSESQEEIIHNIARHLAQIGDEMDHNIQPTLVRQLAAQFMNGSLSEEDKRNCLAKALDEVKTAFPRDMENDKAMLIMTMLLAKKVASHAPSLLRDVFHTTVNFINQNLFSYVRNLVRNEMD
# B5: CTF4 471-927 (Saccharomyces cerevisiae, UniProt Q01454); chain TGKFRYMPFSPAGTPFGFTDRRYLTMNEVGYVSTVKNSEQYSITVSFFDVGRFREYHFEDLFGYDLCFLNEKGTLFGQSKTGQIQYRPHDSIHSNWTKIIPLQAGERITSVAATPVRVIVGTSLGYFRSFNQFGVPFAVEKTSPIVALTAQNYRVFSVHYSQFHGLSYSLSELGTSSKRYYKRECPLPMSLPNINSDMKKDANLDYYNFNPMGIKSLFFSSYGDPCIFGSDNTLLLLSKWRSPEESKWLPILDSNMEIWKMSGGKETTDIHVWPLALAYDTLNCILVKGKHIWPEFPLPLPSEMEIRMPVFVKSKLLEENKAILNKKNEIGADTEAEEGEEDKEIQIPVSMAAEEEYLRSKVLSELLTDTLENDGEMYGNENEVLAALNGAYDKALLRLFASACSDQNVEKALSLAHELKQDRALTAAVKISERAELPSLVKKINNIREARYEQQLK
# B6: Fmnl3 555-954 K800A (Mus musculus, UniProt Q6ZPF4); chain GLSAIRIKKPIKTKFRLPVFNWTALKPNQINGTVFSELDDEKILEDLDLDRFEELFKTKAQGPALDLICSKNKTAQKAASKVTLLEANRAKNLAITLRKAGRSAEEICRAIHTFDLQTLPVDFVECLMRFLPTEAEVKLLRQYERERQPLEELAAEDRFMLLFSKVERLTQRMAGMAFLGNFQDNLQMLTPQLNAIIAASASVKSSQKLKQMLEIILALGNYMNSSKRGAVYGFKLQSLDLLLDTASTDRKMTLLHFIALTVKEKYPELANFWQELHFVEKAAAVSLENVLLDVKELGRGMELIRRECSIHDNSVLRNFLSTNEGKLDKLQRDAKTAEEAYNAVVRYFGESPKTTPPSVFFPVFVRFIRSYKEAEQENEARKKQEEVMREKQLAQEAKKL
# B7: FBN1 115-489 (Homo sapiens, UniProt P35555); chain SIQHCNIRCMNGGSCSDDHCLCQKGYIGTHCGQPVCESGCLNGGRCVAPNRCACTYGFTGPQCERDYRTGPCFTVISNQMCQGQLSGIVCTKTLCCATVGRAWGHPCEMCPAQPHPCRRGFIPNIRTGACQDVDECQAIPGLCQGGNCINTVGSFECKCPAGHKLNEVSQKCEDIDECSTIPGICEGGECTNTVSSYFCKCPPGFYTSPDGTRCIDVRPGYCYTALTNGRCSNQLPQSITKMQCCCDAGRCWSPGVTVAPEMCPIRATEDFNKLCSVPMVIPGRPEYPPPPLGPIPPVLPVPPGFPPGPQIPVPRPPVEYLYPSREPPRVLPVNVTDYCQLVRYLCQNGRCIPTPGSYRCECNKGFQLDLRGECI
# B8: Fmnl3 555-954 R570A (Mus musculus, UniProt Q6ZPF4); chain GLSAIRIKKPIKTKFALPVFNWTALKPNQINGTVFSELDDEKILEDLDLDRFEELFKTKAQGPALDLICSKNKTAQKAASKVTLLEANRAKNLAITLRKAGRSAEEICRAIHTFDLQTLPVDFVECLMRFLPTEAEVKLLRQYERERQPLEELAAEDRFMLLFSKVERLTQRMAGMAFLGNFQDNLQMLTPQLNAIIAASASVKSSQKLKQMLEIILALGNYMNSSKRGAVYGFKLQSLDLLLDTKSTDRKMTLLHFIALTVKEKYPELANFWQELHFVEKAAAVSLENVLLDVKELGRGMELIRRECSIHDNSVLRNFLSTNEGKLDKLQRDAKTAEEAYNAVVRYFGESPKTTPPSVFFPVFVRFIRSYKEAEQENEARKKQEEVMREKQLAQEAKKL
# B9: colicin N T and R domains (Escherichia coli); chain MGSNGADNAHNNAFGGGKNPGIGNTSGAGSNGSASSNRGNSNGWSWSNKPHKNDGFHSDGSYHITFHGDNNSKPKPGGNSGNRGNNGDGASAKVGEITITPDNSKPGRYISSNPEYSLLAKLIDAESIKGTEVYTFHTRKGQYVKVTVPDSNIDKMRVDYVNWKGPKYNNKLVKRFVSQFLL
# Sequence of UniProt P46669 (whole entry, looked up): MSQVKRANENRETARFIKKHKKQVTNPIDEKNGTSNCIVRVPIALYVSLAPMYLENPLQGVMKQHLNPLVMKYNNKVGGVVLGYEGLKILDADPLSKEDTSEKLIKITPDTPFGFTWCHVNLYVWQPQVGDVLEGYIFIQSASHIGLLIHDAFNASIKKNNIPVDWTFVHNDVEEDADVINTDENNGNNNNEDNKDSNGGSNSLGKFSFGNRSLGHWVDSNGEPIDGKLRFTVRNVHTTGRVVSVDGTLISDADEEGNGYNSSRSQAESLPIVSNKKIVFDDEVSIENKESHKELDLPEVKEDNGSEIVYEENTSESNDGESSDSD
# Sequence of UniProt P52127 (whole entry, looked up): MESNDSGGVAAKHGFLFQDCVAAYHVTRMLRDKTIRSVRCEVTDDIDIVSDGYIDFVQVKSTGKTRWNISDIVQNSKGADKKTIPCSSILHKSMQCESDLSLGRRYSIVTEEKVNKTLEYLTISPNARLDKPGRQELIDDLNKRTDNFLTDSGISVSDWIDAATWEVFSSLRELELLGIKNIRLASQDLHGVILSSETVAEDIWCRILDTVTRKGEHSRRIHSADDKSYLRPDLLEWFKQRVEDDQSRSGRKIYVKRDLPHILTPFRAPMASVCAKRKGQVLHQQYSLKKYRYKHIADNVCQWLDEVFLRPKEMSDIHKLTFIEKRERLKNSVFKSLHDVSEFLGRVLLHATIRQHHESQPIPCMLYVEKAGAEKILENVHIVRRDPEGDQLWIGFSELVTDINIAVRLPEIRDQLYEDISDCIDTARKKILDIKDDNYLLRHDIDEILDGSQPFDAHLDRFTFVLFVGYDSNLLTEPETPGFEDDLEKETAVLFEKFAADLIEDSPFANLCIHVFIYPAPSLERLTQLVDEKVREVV
# Sequence of UniProt Q9UBX5 (whole entry, looked up): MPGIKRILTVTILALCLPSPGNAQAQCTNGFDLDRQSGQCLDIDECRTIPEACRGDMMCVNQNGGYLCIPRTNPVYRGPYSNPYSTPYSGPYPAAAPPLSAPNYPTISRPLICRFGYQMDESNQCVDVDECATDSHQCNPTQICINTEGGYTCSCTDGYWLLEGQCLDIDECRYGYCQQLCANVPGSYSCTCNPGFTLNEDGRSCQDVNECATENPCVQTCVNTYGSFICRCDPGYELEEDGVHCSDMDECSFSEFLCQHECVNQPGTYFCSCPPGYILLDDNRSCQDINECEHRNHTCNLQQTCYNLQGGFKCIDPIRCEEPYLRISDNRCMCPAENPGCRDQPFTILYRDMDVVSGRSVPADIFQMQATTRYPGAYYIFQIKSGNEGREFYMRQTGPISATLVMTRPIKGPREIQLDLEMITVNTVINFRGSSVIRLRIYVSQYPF
# Sequence of UniProt Q12280 (whole entry, looked up): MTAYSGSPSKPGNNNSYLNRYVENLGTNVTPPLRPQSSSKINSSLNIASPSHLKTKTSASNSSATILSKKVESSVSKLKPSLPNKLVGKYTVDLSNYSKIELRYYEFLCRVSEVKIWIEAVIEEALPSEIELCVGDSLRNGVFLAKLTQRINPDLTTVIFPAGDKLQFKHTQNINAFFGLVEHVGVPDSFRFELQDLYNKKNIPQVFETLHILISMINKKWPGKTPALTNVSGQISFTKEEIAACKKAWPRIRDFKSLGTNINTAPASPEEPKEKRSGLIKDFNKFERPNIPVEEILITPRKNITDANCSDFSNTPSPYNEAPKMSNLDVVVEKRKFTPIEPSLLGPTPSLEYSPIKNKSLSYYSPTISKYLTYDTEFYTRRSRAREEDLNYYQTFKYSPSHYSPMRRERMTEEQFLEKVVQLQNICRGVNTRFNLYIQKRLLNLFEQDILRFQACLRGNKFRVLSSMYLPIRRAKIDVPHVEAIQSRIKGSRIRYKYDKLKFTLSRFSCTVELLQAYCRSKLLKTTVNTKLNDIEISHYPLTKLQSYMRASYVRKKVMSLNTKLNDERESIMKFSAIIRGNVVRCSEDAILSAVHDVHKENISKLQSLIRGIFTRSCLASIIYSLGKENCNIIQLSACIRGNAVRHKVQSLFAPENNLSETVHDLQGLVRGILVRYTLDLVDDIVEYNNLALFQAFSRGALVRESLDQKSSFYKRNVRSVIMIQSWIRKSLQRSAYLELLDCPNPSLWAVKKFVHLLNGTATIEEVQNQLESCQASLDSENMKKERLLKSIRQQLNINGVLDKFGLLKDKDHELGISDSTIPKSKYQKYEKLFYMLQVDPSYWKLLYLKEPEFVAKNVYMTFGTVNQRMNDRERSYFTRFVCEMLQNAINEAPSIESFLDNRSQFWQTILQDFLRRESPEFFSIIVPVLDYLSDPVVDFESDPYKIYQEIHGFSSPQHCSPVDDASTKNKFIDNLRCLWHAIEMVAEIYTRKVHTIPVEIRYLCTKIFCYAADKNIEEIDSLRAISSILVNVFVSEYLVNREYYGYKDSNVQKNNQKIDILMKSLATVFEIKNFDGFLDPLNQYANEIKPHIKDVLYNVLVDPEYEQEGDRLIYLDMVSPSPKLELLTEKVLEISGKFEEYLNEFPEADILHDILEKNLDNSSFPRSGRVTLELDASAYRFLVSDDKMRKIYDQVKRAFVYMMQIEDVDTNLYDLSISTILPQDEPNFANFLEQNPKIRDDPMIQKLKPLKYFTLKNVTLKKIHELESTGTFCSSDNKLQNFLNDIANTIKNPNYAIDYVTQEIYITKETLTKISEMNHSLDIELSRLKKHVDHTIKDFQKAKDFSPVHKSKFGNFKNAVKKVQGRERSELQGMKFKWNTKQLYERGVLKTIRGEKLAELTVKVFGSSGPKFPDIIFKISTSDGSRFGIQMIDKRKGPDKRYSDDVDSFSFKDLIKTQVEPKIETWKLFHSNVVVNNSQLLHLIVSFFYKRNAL
# Sequence of UniProt P24530 (whole entry, looked up): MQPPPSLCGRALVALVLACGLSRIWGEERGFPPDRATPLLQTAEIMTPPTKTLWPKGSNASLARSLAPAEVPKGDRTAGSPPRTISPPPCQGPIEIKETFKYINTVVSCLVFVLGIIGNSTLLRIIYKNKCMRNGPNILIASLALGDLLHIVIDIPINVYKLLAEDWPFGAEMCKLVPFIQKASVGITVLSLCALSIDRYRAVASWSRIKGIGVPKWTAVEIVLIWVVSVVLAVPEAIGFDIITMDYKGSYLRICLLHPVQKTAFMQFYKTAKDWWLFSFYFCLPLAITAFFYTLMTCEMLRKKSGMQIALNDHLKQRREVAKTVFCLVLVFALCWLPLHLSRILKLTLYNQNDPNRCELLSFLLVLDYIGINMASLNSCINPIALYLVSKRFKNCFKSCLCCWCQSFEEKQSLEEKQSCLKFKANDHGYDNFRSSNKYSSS
# Sequence of UniProt P02931 (whole entry, unmodified, looked up): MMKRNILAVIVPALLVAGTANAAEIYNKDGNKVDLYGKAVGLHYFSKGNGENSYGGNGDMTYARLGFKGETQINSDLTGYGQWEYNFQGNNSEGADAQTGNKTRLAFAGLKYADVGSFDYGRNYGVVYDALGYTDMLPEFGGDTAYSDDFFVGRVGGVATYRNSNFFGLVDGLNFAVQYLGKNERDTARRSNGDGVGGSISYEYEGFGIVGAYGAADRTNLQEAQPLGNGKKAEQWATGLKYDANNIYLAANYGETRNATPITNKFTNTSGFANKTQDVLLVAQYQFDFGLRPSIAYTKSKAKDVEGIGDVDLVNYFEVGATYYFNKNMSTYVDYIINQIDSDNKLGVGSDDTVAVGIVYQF
# Sequence of UniProt P00579 (whole entry, looked up): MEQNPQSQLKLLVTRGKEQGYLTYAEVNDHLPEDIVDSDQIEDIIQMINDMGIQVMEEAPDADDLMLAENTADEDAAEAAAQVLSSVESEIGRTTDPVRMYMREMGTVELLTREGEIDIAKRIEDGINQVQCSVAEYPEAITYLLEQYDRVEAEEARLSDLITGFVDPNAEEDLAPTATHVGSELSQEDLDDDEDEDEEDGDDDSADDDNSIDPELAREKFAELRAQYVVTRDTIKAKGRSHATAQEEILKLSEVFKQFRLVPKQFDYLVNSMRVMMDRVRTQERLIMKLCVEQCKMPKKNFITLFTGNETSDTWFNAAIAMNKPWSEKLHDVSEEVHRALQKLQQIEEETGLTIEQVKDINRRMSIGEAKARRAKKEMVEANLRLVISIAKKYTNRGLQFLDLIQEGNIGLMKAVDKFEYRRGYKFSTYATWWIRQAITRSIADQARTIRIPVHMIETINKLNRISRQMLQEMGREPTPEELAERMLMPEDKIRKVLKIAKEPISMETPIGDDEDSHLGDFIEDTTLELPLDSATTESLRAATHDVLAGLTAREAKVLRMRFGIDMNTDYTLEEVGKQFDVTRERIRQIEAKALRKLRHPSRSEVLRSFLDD
# Sequence of UniProt P52126 (whole entry, looked up): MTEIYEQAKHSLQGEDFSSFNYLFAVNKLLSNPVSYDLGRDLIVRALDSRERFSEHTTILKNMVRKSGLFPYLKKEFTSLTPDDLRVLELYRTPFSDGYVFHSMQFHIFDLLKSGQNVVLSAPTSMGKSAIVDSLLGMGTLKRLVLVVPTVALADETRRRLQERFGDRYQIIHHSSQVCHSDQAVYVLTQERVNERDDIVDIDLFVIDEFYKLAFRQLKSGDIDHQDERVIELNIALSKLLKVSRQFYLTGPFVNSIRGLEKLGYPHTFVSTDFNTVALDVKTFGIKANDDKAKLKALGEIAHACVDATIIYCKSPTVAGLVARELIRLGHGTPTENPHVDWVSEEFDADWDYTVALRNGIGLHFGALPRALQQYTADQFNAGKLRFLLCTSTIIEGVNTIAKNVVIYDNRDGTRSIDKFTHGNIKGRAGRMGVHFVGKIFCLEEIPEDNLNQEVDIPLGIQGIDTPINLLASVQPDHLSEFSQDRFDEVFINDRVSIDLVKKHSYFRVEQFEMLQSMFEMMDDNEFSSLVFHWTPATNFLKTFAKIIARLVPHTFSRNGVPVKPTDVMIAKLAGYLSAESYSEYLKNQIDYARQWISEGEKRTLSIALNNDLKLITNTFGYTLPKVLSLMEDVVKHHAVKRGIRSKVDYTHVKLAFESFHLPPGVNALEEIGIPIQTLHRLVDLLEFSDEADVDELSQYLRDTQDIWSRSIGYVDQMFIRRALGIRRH
Molecule,target or system,test,test system,conditions,how to read,measurement,result
Maackia amurensis agglutinin (Maackia amurensis),"KLK3 (Homo sapiens, UniProt P07288)",peptide or protein array,,,"reference: SNA bound to PSA, higher = more MAA binding",relative binding,7.6 ± 0.1%
B1 (RRN3 18-627),"RPA43 (Saccharomyces cerevisiae, UniProt P46669)",co-IP,,"120 min, starvation, cross-linked","reference: 0 min, higher = more co-precipitation",co-precipitated fraction,64%
melittin,,CD titration,POPC 90% POPG 10% vesicles,"pH 7.0, 40 °C",,free energy of partitioning,-6.95 kcal/mol
"YES1 (Homo sapiens, UniProt P07947)",CD46 mature (Homo sapiens),co-IP,infected cells,5 min,"reference: uninfected cells, higher = more c-Yes co-precipitated",relative co-precipitation,4 fold
BUD4 fragment (Saccharomyces cerevisiae),"IQG1 (Saccharomyces cerevisiae, UniProt Q12280)",two-hybrid,,,higher = stronger interaction,beta-galactosidase activity,558.67 ± 0.3 Miller units
B2 (Fmnl3 555-954 Q746A),"ACTA1, pyrene label (Oryctolagus cuniculus, UniProt P68135)",elongation termination,,"formin 100 nM, together with: capping protein 20 nM",,capping protein protection time,350 s
"RmS-3, glycosylated (Rhipicephalus microplus)",F11 factor XIa (Homo sapiens),"chromogenic substrate hydrolysis, inhibitor",,1 µM,,protease inhibition,< 20%
B3 (HNRNPH1 192-280),"HNRNPA2B1 181-341 (Homo sapiens, UniProt P22626-2)","trapping in hydrogel, hydrogel binding",,"pH 7.5, 4 °C, NaCl 200 mM",,binding,binds
"N-formyl-Met-Leu-Phe, N-formyl","FPR1 (Homo sapiens, UniProt P21462)","inhibition of forskolin-stimulated cAMP, agonist",CHO-K1,,,pEC50,10.2 pEC50
CTCF fragment (Homo sapiens) (sequence not shown),"T1, STAG2/RAD21 STAG2 80-1060, RAD21 281-420 (Homo sapiens)",ITC,,,,molecule per partner,0.78
B4 (Bid),"BCL2L1 1-209 G138A (Homo sapiens, UniProt Q07817-1)",co-IP,,,,binding,binds
B5 (CTF4 471-927),"PSF1/PSF2/PSF3/SLD5 GINS, Psf1 1-164 (Saccharomyces cerevisiae)",SEC,,,,binding,binds
"protein (Escherichia coli, UniProt P52126)","hamA (Escherichia coli, UniProt P52127)",cryo-EM,,,,molecule per partner,1
"EDN1 mature, Nle at 7","EDNRB (Homo sapiens, UniProt P24530)",Ca2+ release,COS-7,co-transfection,,EC50,2 nM
B6 (Fmnl3 555-954 K800A),"ACTA1, TMR label (Oryctolagus cuniculus, UniProt P68135)",AUC,,KCl 50 mM,,fraction bound,0.88 fraction
B7 (FBN1 115-489),"FBLN5 42-448 (Homo sapiens, UniProt Q9UBX5)",ELISA,,,,binding,binds
"rpoD (Escherichia coli, UniProt P00579)",rpoB/rpoC core RNA polymerase (Escherichia coli),pausing efficiency,,adhE TEC,,apparent Kd,270 nM
B8 (Fmnl3 555-954 R570A),"ACTA1, pyrene label (Oryctolagus cuniculus, UniProt P68135)","inhibition of filament elongation, inhibitor, pyrene-actin assay",,,,IC50,0.9 nM
B9 (colicin N T and R domains),"ompF mature, trimer (Escherichia coli, UniProt P02931)",ITC,,,,ΔH,-17.3 kcal/mol
GCCTAAAAGAGGATATCCTTATAGCATAATTAACTAAACTTAATTAAATAAATAATATATCCTAAGGAGAGAAATG (dsDNA),"Manganese transport regulator 1-215 Y167A/F187A (Streptococcus pyogenes, UniProt A0A0H2UTK0)",EMSA,"double-stranded DNA, one strand shown",together with: Mn2+ 300 µM,,binding,binds
GMI (Ganoderma microsporum),"ACE2 (Homo sapiens, UniProt Q9BYF1)","cell-cell fusion inhibition, inhibitor, split luciferase",HEK293T,,,IC50,75 nM
"RmS-6, glycosylated (Rhipicephalus microplus) (sequence not shown)",F2 thrombin (Bos taurus),"chromogenic substrate hydrolysis, inhibitor",,1 µM,,protease inhibition,< 20%
